Measurements from different studies.
A part holds a random share of what one study measured. Changes are numbered by the printed parent chain.

Series 1
Target: Phosphate system positive regulatory protein PHO4, full length, GST-tagged (PHO4, Saccharomyces cerevisiae, UniProt P07270, residues 1-312)
Method: competition protein-binding microarray
Form: double-stranded DNA, one strand shown
Sample: in vitro
Concentration: 2 µM
Notes: whole 60-bp probe, lowest competitor level
Added: Cbf1 competitor, 0.05 µM
Reading: higher = stronger binding
Target sequence (chain): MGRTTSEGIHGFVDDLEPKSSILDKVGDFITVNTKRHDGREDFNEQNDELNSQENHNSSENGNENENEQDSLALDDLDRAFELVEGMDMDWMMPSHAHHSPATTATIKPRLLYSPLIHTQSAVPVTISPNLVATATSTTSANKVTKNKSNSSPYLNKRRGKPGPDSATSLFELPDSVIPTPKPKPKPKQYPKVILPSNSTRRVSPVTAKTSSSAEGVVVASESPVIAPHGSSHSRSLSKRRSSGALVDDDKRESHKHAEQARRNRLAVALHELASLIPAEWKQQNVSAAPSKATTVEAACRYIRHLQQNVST
| Oligonucleotide | fluorescence intensity [a.u.] |
| --- | --- |
| AAAGACCTGTCGAGTCACGTTCGTTCAACTGTAGTGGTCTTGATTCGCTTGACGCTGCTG | 9240 |
| CTAAGCATATATCCTCACGTGACTCGGGCCACAGACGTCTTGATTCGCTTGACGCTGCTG | 15000 |
| GATTGCATACCCGCACTCGTGCTTTCATGCTAATTGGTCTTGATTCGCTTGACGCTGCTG | 10400 |
| CTAACGAAGGTTTGAAGAGTGGGTGACAAGCCAAGTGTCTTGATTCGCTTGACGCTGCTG | 3630 |
| TCCACCTTTGAAAACGGTGTGACGAAGCCCTTTCGAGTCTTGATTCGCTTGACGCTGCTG | 4060 |
| TTTCTCATATACCGTCACGTGGCCGGATGTTTATCGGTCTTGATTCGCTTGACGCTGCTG | 16400 |
| AAAGCGGTAATTTGCTGTGTGGGTGCAGATATCTATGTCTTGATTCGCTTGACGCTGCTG | 4930 |
| TTAAAAAAAAAAAAGCACGTGCTAAAAAATGTTTTTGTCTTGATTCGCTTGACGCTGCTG | 19100 |
| ATTTGAACACCCCGTCACCTGAGTTAGGTAATTCATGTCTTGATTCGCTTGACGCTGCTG | 3790 |
| ATTTCTTCTGTTTCACACGTTGTGCTTGCCAGGAATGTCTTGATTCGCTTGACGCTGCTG | 11800 |
| CTTCTGTAAATTTGCACCGTGGGTGGACGCGCCCCGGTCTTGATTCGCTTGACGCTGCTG | 8150 |
| TACCCTCTCAGTCCGCACGTGCGGAGGGATCAGCCTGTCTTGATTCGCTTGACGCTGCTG | 15400 |
| CATTGGCCAGGGACGCATGTGCAGAGGCGGCAGAGTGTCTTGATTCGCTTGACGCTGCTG | 10400 |
| GGTTTACCGGAATGTCAGGTGATAGCAGCGGAGGGTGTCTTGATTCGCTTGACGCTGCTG | 4040 |
| CTGGGACATATTCAGTTCGTGCCAGTTTTTAAAGGGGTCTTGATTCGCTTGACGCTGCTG | 7280 |
| AAATTACTAAGTTGTATCGTGGGTGACGCCGTATGAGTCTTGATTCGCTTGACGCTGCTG | 7180 |
| CGGGGTTAAGTTTGTCACACGACTTGCTTGCAGCAGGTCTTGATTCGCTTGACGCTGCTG | 5330 |
| TGTTAGCGCAAATGCTACATGACAGGCCAATCGTAGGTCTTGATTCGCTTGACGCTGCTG | 4320 |
| ATGTACAGCGGTACCCTCGTGTTTTCTGCAGCGAGAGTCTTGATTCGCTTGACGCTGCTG | 13200 |
| CAGAAGGAGAGACTGAACGTGTACTTCAACGAGGCAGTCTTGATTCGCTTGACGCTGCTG | 9770 |
| TGCGCAACAACTTGCCGAGTGGGTGTATGTCTAGAAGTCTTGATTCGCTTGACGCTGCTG | 4440 |
| TGGTTGGCATCTTATCCCGTGGTGAATCCATTACCAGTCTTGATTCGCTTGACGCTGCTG | 7820 |
| GAAGTAACTTGATACGTCGTGGGTAAATGGGTCTGTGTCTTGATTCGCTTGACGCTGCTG | 7580 |
| AAATTACTAAGTTTTCACGTGTATTACCCCGTATGAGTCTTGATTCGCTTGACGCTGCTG | 14700 |
| CGGGGTTAAGTTTTTCACGTGGGTTGCTTGCAGCAGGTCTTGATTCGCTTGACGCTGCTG | 14400 |

Series 2
Target: Histone acetyltransferase KAT6A, winged helix 2, GST fusion (KAT6A, Homo sapiens, UniProt Q92794, residues 85-181)
Method: protein binding microarray
Form: double-stranded DNA, one strand shown
Sample: in vitro
Concentration: not given
Notes: 8-mer, flanks averaged, mean of 2 arrays, mostly near background
Relative to: not given
Reading: higher = stronger binding
Residues (chain): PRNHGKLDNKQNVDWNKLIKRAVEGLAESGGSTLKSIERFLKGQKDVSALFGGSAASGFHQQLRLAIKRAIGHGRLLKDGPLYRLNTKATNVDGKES
| Oligonucleotide | E-score |
| --- | --- |
| AAATAGTA | -0.117 |
| CCGGATTC | 0.0956 |
| CAGGAGCG | 0.14 |
| TCCCGCCA | 0.0579 |
| CGAATAAA | 0.00224 |
| CCAGTCCA | -0.123 |
| GAGACTGC | -0.021 |
| ATTATGAC | -0.168 |
| GCCGTGGA | -0.0762 |
| CGGCAATA | -0.00648 |
| TAATTTGA | -0.178 |
| CGCAATAA | 0.0349 |
| AGCCACCA | -0.0355 |
| AGCGCATA | 0.00717 |
| GTGTAATA | -0.0694 |
| CAGTGCTC | 0.0605 |
| CAAAGTGG | -0.007 |
| ACGGCAGG | 0.132 |
| CTTACCAA | -0.00646 |
| AAGTCGCA | 0.0644 |
| AAATTTTC | -0.0452 |
| AAAAGCCC | -0.0726 |
| ATTGGATA | -0.137 |
| GACGACTA | -0.139 |
| CAGGTTGA | -0.211 |

Series 3
Target: CCNB2, cyclin fold, Cln2 fusion (human)
Method: yeast growth competition, sequencing
Sample: yeast
Notes: weak parent motif
Relative to: not given
Reading: higher = stronger binding
Parent: SLBP docking peptide (human); ARYKRKLLINDFG
| Substitution | normalised enrichment score |
| --- | --- |
| F12R | 1.44 |
| R5Y | 0.518 |
| F12C | 0.202 |
| L7Y | 0.899 |
| N10V | 0.785 |
| N10M | 0.288 |
| K4H | 0.825 |
| K4N | 0.57 |
| A1G | 0.361 |
| I9F | 0.375 |
| L7K | 0.695 |
| K4Q | 0.435 |
| A1V | 0.87 |
| R5V | 0.723 |
| R2H | 0.616 |
| D11Y | 0.915 |
| R5T | 0.383 |
| F12L | 0.806 |
| A1W | 1.28 |
| G13H | 0.599 |
| L8A | 0.498 |
| L7V | 0.716 |
| I9A | 0.346 |
| R5E | 0.0689 |
| K6H | -0.218 |

Series 4
Target: Interferon regulatory factor 7, full length, phosphomimetic (IRF7, Homo sapiens, UniProt Q92985, residues 1-503, S471D/S472D/S475D/S476D/S477D/S483D/S484D/S487D)
Method: protein-binding microarray
Form: double-stranded DNA, one strand shown
Sample: in vitro
Concentration: 2200 nM top
Notes: 60-bp whole probe
Added: salmon DNA 0.4 mg/ml
Relative to: random background probes
Reading: higher = stronger binding
Constant ends, left off below: GCCTAGCAC … GTCTTGATTCGCTTGACGCTGCTG
Construct (chain): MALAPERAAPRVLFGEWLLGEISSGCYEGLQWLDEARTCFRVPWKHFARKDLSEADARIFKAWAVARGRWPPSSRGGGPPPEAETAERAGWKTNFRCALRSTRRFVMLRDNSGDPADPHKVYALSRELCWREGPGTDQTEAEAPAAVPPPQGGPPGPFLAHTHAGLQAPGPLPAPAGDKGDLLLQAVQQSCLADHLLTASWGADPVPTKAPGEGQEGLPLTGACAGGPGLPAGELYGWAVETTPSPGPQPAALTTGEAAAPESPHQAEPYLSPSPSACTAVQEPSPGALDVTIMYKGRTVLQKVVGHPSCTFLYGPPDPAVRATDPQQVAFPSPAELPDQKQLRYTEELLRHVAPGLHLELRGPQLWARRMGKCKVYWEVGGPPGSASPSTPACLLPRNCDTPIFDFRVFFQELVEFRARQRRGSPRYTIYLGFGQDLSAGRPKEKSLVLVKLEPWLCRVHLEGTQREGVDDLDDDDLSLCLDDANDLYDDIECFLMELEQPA
| Oligonucleotide | fitted relative affinity |
| --- | --- |
| GACGGACTGGACTTTCGGGATGTGCTA | 3.19 z-score |
| CCATTCTTGGGACTCACCTGGTGCTAG | 1.11 z-score |
| TTATTTAGGATAGAACTATAGTGCTAG | -0.15 z-score |
| GACGAACTGAGTTTCGGGACGTGCTAG | 2.59 z-score |
| TTAGGTTTAGGTATCGGTTAGTGCTAG | 0.759 z-score |
| TCATATATGCATGTAAAACTGTGCTAG | 0.559 z-score |
| TTACATTCCCCATTGTGTTGGTGCTAG | 2.45 z-score |
| TCAGAATTTACTTTCTACGTGTGCTAG | 1.48 z-score |
| GACGATATCGGGTTTCGGGACGTGCTA | 1.88 z-score |
| GACGGTATCGAATTTCGGGACGTGCTA | 1.08 z-score |
| TCACCTCAGGGTTTCAGACTGTGCTAG | 0.349 z-score |
| TCATTTTTCTAACTAAAACTGTGCTAG | 1.31 z-score |
| TTAAATCTCAGTTTCGATTAGTGCTAG | 5.44 z-score |
| TTAGGTATCGACACTGTGTTAGTGCTA | 0.257 z-score |
| TCAAGTTTCATTCCTGAACTGTGCTAG | 2.52 z-score |
| TTTGAACTGGGGTATCGATTAGTGCTA | 0.28 z-score |
| GACGAACTGAGTATGGAGACGTGCTAG | -0.238 z-score |
| TCACATTACAGCTATTTTACTGTGCTA | 1.35 z-score |

Repeated from above (series 4):
| Oligonucleotide | fitted relative affinity |
| --- | --- |
| CCATTCTTGGGACTCACCTGGTGCTAG | 1.11 z-score |
| TTACATTCCCCATTGTGTTGGTGCTAG | 2.45 z-score |
| TTAAATCTCAGTTTCGATTAGTGCTAG | 5.44 z-score |
| TCAGAATTTACTTTCTACGTGTGCTAG | 1.48 z-score |
| GACGAACTGAGTTTCGGGACGTGCTAG | 2.59 z-score |
| TCACCTCAGGGTTTCAGACTGTGCTAG | 0.349 z-score |
| TTATTTAGGATAGAACTATAGTGCTAG | -0.15 z-score |
| GACGGTATCGAATTTCGGGACGTGCTA | 1.08 z-score |
| TCATATATGCATGTAAAACTGTGCTAG | 0.559 z-score |
| TTAGGTTTAGGTATCGGTTAGTGCTAG | 0.759 z-score |
| GACGATATCGGGTTTCGGGACGTGCTA | 1.88 z-score |
| TCACATTACAGCTATTTTACTGTGCTA | 1.35 z-score |
| GACGAACTGAGTATGGAGACGTGCTAG | -0.238 z-score |
| TCAAGTTTCATTCCTGAACTGTGCTAG | 2.52 z-score |
